Measured values pooled from the literature.
Protocols differ between the studies behind these lines. Several values in a cell are separate wells, animals, samples, runs or records. Numbers after ± are the reported error. Converted amounts (≈) assume the structure as drawn.

C[Si](C)(C)C[C@H](CN)CC(=O)O
inhibition (sodium channel site 2, rat; binding; 250 µM): -6%

COc1cc(C(SC(C)C)SC(C)C)ccc1OCCNS(=O)(=O)c1ccc(Br)cc1
EC50 (tobacco mosaic virus; protective activity; in vivo plant): 252 ± 2.6 µg/mL (≈ 460 µM)

CC(C)C[C@@H]1NC(=O)[C@@H](Cc2c[nH]c3ccccc23)NC(=O)[C@H](CCCNC(=N)N)NC(=O)[C@@H](CCC(=O)O)NC(=O)[C@H](CCC(N)=O)NC(=O)[C@@H](CCC(=O)O)NC(=O)[C@H](CCCNC(=N)N)NC(=O)[C@@H](Cc2c[nH]c3ccccc23)NC1=O
cytokine level (Luminex, item: RANTES; LDLr-/- mice, Western diet, liver; dose not given, 4 weeks): 71 ± 61 pg/g tissue

CCn1cnc2c(Oc3ccc(/C=C/C(=O)c4ccc(NS(=O)(=O)c5ccccc5C)cc4)cc3)ncnc21
EC50 (Tobacco mosaic virus; protective activity; plant in vivo): 447.2 ± 2.1 µg/mL (≈ 829 µM)

CNCCO.O=C(O)C(Cl)Cl
herbicidal inhibition (Eclipta prostrata; 15 mg/mL, 21 days, pre-emergence, greenhouse): 0%

Cl.Oc1ccc(Nc2ccnc3cc(Cl)ccc23)cc1
inhibition (Dengue virus type 2; viral replication, Rluc reporter replicon; BHK-21 DENV2 replicon cells; 50 µM, 24 h): 3.9 ± 0.3%

COc1ccccc1-c1n[nH]c2nc(NC3CCN(C(=O)Cc4ccc(F)cc4F)CC3)ncc12
relative abundance (bead binding, competition bead pull-down, item: LMJF.25.1420; Leishmania donovani axenic amastigote extract; 10 µM; reference: vehicle): 1.06

CCCCCCCCCCCC(=O)C(C)C(=O)N1CCC[C@H]1C(=O)NC(C)(C)C(=O)NC(C)(C)C(=O)NC(C)(C)C(=O)N[C@](C)(CC)C(=O)NCCC(=O)N[C@@H](C)C(=O)N[C@](C)(CC)C(=O)N[C@@H](C)C(=O)N[C@@H](CC(C)C)C(=O)N[C@](C)(CC)C(=O)NCCC(=O)N[C@@H](C)C(=O)N[C@](C)(CC)C(=O)NCCC(=O)N[C@@H](C)C(=O)NC(C)(C)C(=O)NC(C)(C)C(=O)NC(C)(C)C(=O)N[C@@H](C)C(=O)N[C@@H](CC(=O)O)C(=O)O (stereo partly shown)
bound compound (MS peak area) (β-1,3-glucan; pull-down, LC-MS; 1 h, pH 7.0, 30 °C, together with: β-glucan 1 mg/mL; higher = more bound): 1310 a.u.

CCN(CC)Cc1cc(Nc2c(C)cnc3cc(Cl)ccc23)ccc1O.Cl
inhibition (West Nile virus; viral replication, Rluc reporter replicon; Vero WNV replicon cells; 50 µM, 24 h): 97.9 ± 0.5%

CC[C@@H]1CN2CCc3c([nH]c4cccc(OC)c34)[C@@H]2C[C@@H]1/C(=C\OC)C(=O)OC
IC50 (rabbit anti-mitragynine polyclonal IgG; antigen binding, competitor, competitive indirect ELISA; 5% methanol; 90 min antibody-standard, 60 min antibody-antigen incubation): 1.01 µg/mL and 0.99 µg/mL

Cc1ccc(S(=O)(=O)NCCOc2ccc(C(SC(C)C)SC(C)C)cc2Cl)cc1
EC50 (Tobacco mosaic virus; protective activity; plant in vivo): 320 ± 3.2 µg/mL (≈ 656 µM)

Cc1cc(C(=O)Nc2nc3cccc(C)c3n2[C@H]2CCCCN(C(=O)/C=C/CN(C)C)C2)ccn1
survival (Trypanosoma brucei brucei; 2T1 wild type; 0.00114 µM): 93.4% and 77.5% and 91.4% and 86.6% and 99.5% and 101%

O=C(O)c1ccc(-c2nc(-c3ccccc3Cl)c3sccn23)cc1
platelet count change (C57BL/6 mice; dose not given, day 10, basal hematopoiesis): 110% and 88.9% and 120%

CCCSC(SCCC)c1ccc(OCCNS(=O)(=O)c2ccc(C)cc2)cc1
EC50 (Tobacco mosaic virus; curative activity; plant in vivo): 258.5 ± 2.3 µg/mL (≈ 570 µM)

CC(C)CC(C(=O)N1CC2(CC1C#N)C(=O)Nc1ccccc12)N(C)C(=O)c1cc2c(F)cc(F)c(F)c2[nH]1 (stereo not shown)
inhibition (Human coronavirus 229E; cytopathic effect; MRC5; 99.5 nM): 109%

CCSC(SCC)c1ccc(OCCNS(=O)(=O)c2ccc(C)cc2)c(Cl)c1
EC50 (Tobacco mosaic virus; protective activity; plant in vivo): 892.2 ± 2.3 µg/mL (≈ 1940 µM)

CC[C@H](C)CCCCC(=O)N[C@@H](CCN)C(=O)N[C@H](C(=O)N[C@@H](CCN)C(=O)N[C@H]1CCNC(=O)[C@H]([C@@H](C)O)NC(=O)[C@H](CCN)NC(=O)[C@H](CCN)NC(=O)[C@H](CC(C)C)NC(=O)[C@@H](CC(C)C)NC(=O)[C@H](CCN)NC1=O)[C@@H](C)O
MIC fold change (Escherichia coli; daily serial passaging; ATCC 8739; highest sub-MIC, 9 days; reference: initial MIC): 2.26

CC1(C)CC(=O)C2=C(C1)Oc1ccccc1C2C1C(=O)NC(=O)NC1=O (stereo not shown)
lipid content (3T3-L1 preadipocytes; adipogenesis, Oil Red O staining; IC20, 14 days, single replicate): 0.799 OD492

CCCCSC(SCCCC)c1ccc(OCCNS(=O)(=O)c2ccc(F)cc2)c(OC)c1
EC50 (tobacco mosaic virus; inactivation activity; in vivo plant): 48.1 ± 2 µg/mL (≈ 93.3 µM)

CC1CCC2C(C)C(CCCOC(=O)C(Cc3ccc(N(CCCl)CCCl)cc3)NC(=O)OC(C)(C)C)OC3OC4(C)CCC1C32OO4 (stereo not shown)
IC50 (DU-145; cell growth or viability, CCK-8): > 50 µM

CC(C)(C)C(=O)OCOP(=O)(OCOC(=O)C(C)(C)C)C1CCCN(O)C1=O (stereo not shown)
log TGI (UACC-257): -4.87 log M

COc1ccccc1-c1n[nH]c2nc(N[C@H]3CC[C@H](NS(=O)(=O)CC(C)C)CC3)ncc12
relative abundance (bead binding, competition bead pull-down, item: LINJ.34.3810; Leishmania donovani extract; 10 µM; reference: vehicle): 2.59

CC(C)[C@@H]1NC(=O)[C@H](C)NC(=O)[C@H](Cc2ccc(O)cc2)NC(=O)[C@H](CC(=O)O)NC(=O)[C@@H](NC(=O)[C@H](CCCCN)NC(=O)[C@H](CC(=O)O)NC(=O)[C@H](Cc2c[nH]cn2)NC(=O)[C@@H](NC(=O)[C@H](Cc2ccccc2)NC(=O)[C@@H](N)Cc2ccccc2)C(C)C)CCSSCC[C@@H](C(=O)N[C@@H](CCCCN)C(=O)NCC(=O)N[C@@H](CO)C(=O)N[C@@H](CCCCNC(=O)CCCC[C@@H]2SC[C@@H]3NC(=O)N[C@@H]32)C(N)=O)NC(=O)[C@H](CCC(N)=O)NC(=O)[C@H](Cc2c[nH]cn2)NC1=O
koff (anti-HA antibody 12CA5, mouse; biolayer interferometry; 30 °C): 4.72e-05 s⁻¹

CC(C)[C@@H]1NC(=O)[C@@H]2CCCN2C(=O)[C@@H](C(C)C)NC(=O)[C@H]2CCCN2C(=O)[C@H](C(C)C)NC(=O)[C@@H]2CCCN2C(=O)[C@@H](C(C)C)NC(=O)[C@H]2CCCN2C(=O)[C@H](C(C)C)NC(=O)[C@@H]2CCCN2C(=O)[C@@H](C(C)C)NC(=O)[C@H]2CCCN2C1=O
bi-ionic potential (sheep lipid bilayer; 10 µM, pH 7.4, 23 °C, together with: 10 mM K+ vs Tl chloride): -29 mV

Nc1ncc(-c2cc(-c3cnn(CC(F)(F)F)c3)ncc2F)nc1C(=O)NC1CNCC(F)C1 (stereo not shown)
remaining binding (ABL1(F317L)-phosphorylated; KINOMEscan competition binding; 1 µM; reference: DMSO control): 100%

Some of these lines once more:
CC1(C)CC(=O)C2=C(C1)Oc1ccccc1C2C1C(=O)NC(=O)NC1=O (stereo not shown)
lipid content (3T3-L1 preadipocytes; adipogenesis, Oil Red O staining; IC20, 14 days, single replicate): 0.799 OD492

CCCCSC(SCCCC)c1ccc(OCCNS(=O)(=O)c2ccc(F)cc2)c(OC)c1
EC50 (tobacco mosaic virus; inactivation activity; in vivo plant): 48.1 ± 2 µg/mL (≈ 93.3 µM)
